Measurements collected from several papers.
Protocols differ between the studies behind these lines. Several values in a cell are separate wells, animals, samples, runs or records. ± gives the spread as reported.
Genome polyprotein NS2B-NS3 protease: Genome polyprotein, NS2B-NS3 protease (dengue virus type 2, UniProt P29990)

| Structure (SMILES) | target or system | assay | system | setting | how to read | measurement | value |
| --- | --- | --- | --- | --- | --- | --- | --- |
| Cc1nc(Nc2ccc3c(c2)/C(=C/c2cn(C)c4ccccc24)C(=O)N3C)c2ccccc2n1 | B16 | cell growth or viability, MTT |  |  |  | IC50 | 3070 nM |
| Cc1cc(C)[nH]n1 | BEAS-2B | cell growth or viability, MTT |  | 24 h |  | IC50 | > 800000 nM |
| NC(=O)c1cccc(NC(=O)c2cc(-c3ccccc3)n(-c3ccccc3)n2)c1 | Genome polyprotein NS2B-NS3 protease | reporter gene | HeLa |  |  | EC50 | 9900 nM |
| COC1CN([C@H]2CC[C@H]([C@@]3(C)Oc4c(Cl)cc(C(=O)NCc5c(SC)cc(C)[nH]c5=O)c(C)c4O3)CC2)C1 |  | RNA-seq, measured: ADGRG6 | human, whole blood | dose not given, 24 h | baseline: pretreatment baseline | log2 fold change | 3.86 |
| Cc1cc(C(=O)Nc2cccc(C(N)=O)c2)n(Cc2ccccc2)n1 | Genome polyprotein NS2B-NS3 protease | reporter gene | HeLa |  |  | EC50 | 21000 nM |
| O=C1/C(=N\c2ccccc2Br)c2ccccc2N1Cc1ccc([N+](=O)[O-])cc1 | B16 | cell growth or viability, MTT |  | 48 h |  | IC50 | 890 nM |
| Cn1ncc(-c2ccc3c(=O)[nH]nc(CN)c3c2)c1-c1c(F)c(Cl)cc(OC2CC2)c1C#N | SF763 | cell viability, CellTiter-Glo |  | 120 h |  | IC50 | 1300 nM |
| NC(=O)c1ccc(-c2ccccc2Cl)c2c3c([nH]c12)CC[C@H](N)C3 | SU-DHL-4 | cell growth or viability |  |  |  | IC50 | 23.2 nM |
| COc1c(Cl)cccc1Nc1c(-c2ccncc2C#C[C@@]2(C)CCCN2C(=O)/C=C/CN(C)C)[nH]c2c1C(=O)NCC2 | NCI-H2073 KI SVD | cell proliferation, CellTiter-Glo |  | 72 h |  | IC50 | 6.04 nM |
| Cc1cc(N)n(-c2ccc(Oc3ccccc3)c(S(=O)(=O)O)c2)n1 | HEK293 AP-1-luc cells | reporter gene |  | 24 h, 20% serum |  | IC50 | 50 nM |
| [BH3-][P@+]1(c2ccccc2)CC[C@H](O)CC1 | SW-620 | cell growth or viability, MTT |  | 72 h |  | IC50 | > 100000 nM |
| CCOc1cncc(-c2ccc(NC(=O)C3(c4ccnc(NS(=O)(=O)C5CC5)n4)CCOCC3)nc2)n1 | renal cancer | cell viability, CellTiter-Glo | DMSO 0.1% | 72 h, line code 486 |  | IC50 | 73 nM |
| Nc1nnc(-c2ccccc2O)cc1N1CC2CCC(C1)N2c1ccnc(C#CCCN2CCCCCC2)c1 | VCaP | cell growth or viability, ATP luminescence |  | 7 days |  | IC50 | 35.9 nM |
| C=CCOCO[C@H](C(=O)NC[C@@H]1C[C@@H](OC)C(C)(C)[C@@H](C[C@@H](COC)OC)O1)[C@@]1(OC)CC(=C)[C@@H](C)[C@@H](C)O1 | B16 | cell viability, sulforhodamine B |  | 72 h, 37 °C, together with: 100 µM H2O2 |  | IC50 | 3140 ± 110 nM |
| CCCC(CCC)C(=O)[O][Pt]([NH2])([NH2])([Cl])([Cl])[O]C(C)=O | PSN1 | cell growth or viability, MTT |  | 72 h |  | IC50 | 2610 nM |
| CN1C(=O)/C(=N\c2ccc(Cl)cc2Br)c2ccccc21 | B16 | cell growth or viability, MTT |  | 48 h |  | IC50 | 9270 nM |
| Cc1ncsc1-c1ccc(C(C)NC(=O)C2CC(O)CN2C(=O)C(NC(=O)CCCCCCCCCCN2CCCC(Nc3ncc(Cl)c(Nc4ccccc4S(=O)(=O)C(C)C)n3)C2)C(C)(C)C)cc1 (stereo not shown) | 22Rv1 | RNA-seq, measured: MRGBP mRNA |  | concentration not given | baseline: DMSO | log2 fold change | -1.14 |
| C=CC(=O)Nc1cc(Nc2nccc(-c3cn(C)c4ccccc34)n2)c(OC)cc1N(C)CCN(C)C | Ba/F3 EGFR 19Del BBT-176-resistant BR2 | cell growth |  | 72 h |  | IC50 | 19 nM |
| C=CC(=O)N1CC2C(=O)N(CCN(C)C)c3c(c4cc(Cl)c(-c5c(O)cccc5F)nc4n(-c4c(C)ccnc4C(C)C)c3=O)N2CC1C (stereo not shown) | NCI-H358 | cell growth or viability |  |  |  | IC50 | 1.9 nM |

| Structure (SMILES) | target or system | assay | system | setting | how to read | measurement | value |
| --- | --- | --- | --- | --- | --- | --- | --- |
| CNS(=O)(=O)Nc1nccc(Cc2c(C)c3ccc(Oc4ncccc4F)cc3oc2=O)c1F | NCI-H1838 | cell viability |  | 7 days |  | IC50 | > 1000 nM |
| Cc1ccc(-n2cc(CSc3nc4ccccc4n3Cc3cn(-c4ccc(C)cc4)nn3)nn2)cc1 | Caco-2 | cell growth or viability, MTT |  |  |  | IC50 | 12.2 µg/mL |
| COc1ccccc1/C=C1\C(=O)N(C)c2ccc(Nc3nc(C)nc4ccccc34)cc21 | B16 | cell growth or viability, MTT |  |  |  | IC50 | 4140 nM |
| CC(C)c1ccc(N(C)c2ccc3c(c2)OCC[C@H]3CNc2cnccc2C(=O)O)cc1 | NCI-H1836 | cell growth or viability, ATP luminescence |  | 7 days |  | IC50 | 6.07 nM |
| O=C(CCc1ccccc1)N1C(=O)C2(NC(c3ccc(F)cc3)C3(C(=O)Nc4ccccc43)N2Cc2ccc(F)cc2)c2ccccc21 (stereo not shown) | B16 | cell growth or viability, MTT |  | 48 h |  | IC50 | 27900 nM |
| O=CCNCCOn1c(=O)n(OCCNCCO)c(=O)n(OCCNCCOn2c(=O)n(OCCNCCO)c(=O)n(OCCNCCO)c2=O)c1=O | A549 | cell growth or viability, MTT |  | 72 h |  | IC50 | 11.8 µg/mL |
| CN1CCC(N[C@@H]2CCc3[nH]c4c(C(N)=O)ccc(-c5ccccc5Cl)c4c3C2)CC1 | MX1 | cell growth or viability |  |  |  | IC50 | 12.9 nM |
| COc1ccccc1/C=C1\C(=O)N(C)c2ccc(N(C)c3nc(C)nc4ccccc34)cc21 | B16 | cell growth or viability, MTT |  |  |  | IC50 | 1400 nM |
| NC(=O)c1nnn(Cc2cc(Cl)c(C(=O)c3ccc(Cl)cc3)c(Cl)c2)c1N | human iPSC-derived cardiomyocytes | beat rate, calcium transient |  | 15 min |  | IC50 | 1660 nM |
| CCn1nc(Cl)c2c1-c1cnc(N)c(c1)O[C@H](C)c1cc(F)ccc1-c1nn(C)cc1C2 | Ba/F3 CD74-ROS1 wild type | cell viability |  |  |  | IC50 | 0.7 nM |
| CSCC[C@H](NC(=O)[C@@H](CO)NC(C)=O)C(=O)N[C@@H](CCCNC(=N)N)C(=O)N[C@@H](Cc1c[nH]c2ccccc12)C(=O)N[C@@H](CO)C(=O)N[C@@H](CCCNC(=N)N)C(=O)N[C@@H](CCCCN)C(=O)N[C@@H](CCSC)C(=O)N1CCC[C@H]1C(=O)N[C@@H](CS)C(=O)N[C@H](C(=O)N[C@@H](CO)C(=O)O)C(C)C | SUP-T1 | Erk phosphorylation, inhibitor, phospho flow cytometry |  | together with: CXCL12 100 ng/mL |  | IC50 | > 100000 nM |
| COc1ccc(C(C)N(C)c2nc(N)nc3nc[nH]c23)cc1 (stereo not shown) | CHO | cytotoxicity, MTT |  |  |  | IC50 | > 50000 nM |
| O=C(CCc1ccco1)N1C(=O)C2(NC(c3ccc(F)cc3)C3(C(=O)Nc4ccccc43)N2Cc2ccc(F)cc2)c2ccccc21 (stereo not shown) | B16 | cell growth or viability, MTT |  | 48 h |  | IC50 | 33800 nM |
| CC(C)=CCc1c(OCC2OC2(C)C)ccc2ccc(=O)oc12 (stereo not shown) | COLO 320 multidrug-resistant | cytotoxicity, MTT |  | 24 h, 10% fetal bovine serum |  | IC50 | > 100000 nM |
| Cc1cc(C)cc(NC(=O)N(Cc2ccc(C(=O)NO)cc2)OCc2ccccc2)c1 | HAL-01 B-ALL | cell viability, CellTiter-Glo |  | 72 h |  | IC50 | 2820 ± 94 nM |
| CCc1c(-c2ccc3[nH]ncc3c2)cnc(N)c1-c1ccc(O)cc1 | CHP-212 parental | cell viability, SRB |  |  |  | IC50 | 13200 nM and 14200 nM and 14000 nM |
| Cc1nc(Nc2ccc3c(c2)/C(=C/c2ccccc2Cl)C(=O)N3C)c2ccccc2n1 | BEAS-2B | cell growth or viability, MTT |  |  |  | IC50 | 12800 nM |
| C=CC(=O)N1CCCC(n2c(=O)c3ncccc3n(Cc3ccc(Oc4ccccc4)cc3)c2=O)C1 (stereo not shown) | Karpas-1106P | cell growth or viability, MTT |  | 72 h |  | IC50 | 7500 nM |

Excerpt of the above:
| Structure (SMILES) | target or system | assay | system | setting | how to read | measurement | value |
| --- | --- | --- | --- | --- | --- | --- | --- |
| Nc1nnc(-c2ccccc2O)cc1N1CC2CCC(C1)N2c1ccnc(C#CCCN2CCCCCC2)c1 | VCaP | cell growth or viability, ATP luminescence |  | 7 days |  | IC50 | 35.9 nM |
| C=CCOCO[C@H](C(=O)NC[C@@H]1C[C@@H](OC)C(C)(C)[C@@H](C[C@@H](COC)OC)O1)[C@@]1(OC)CC(=C)[C@@H](C)[C@@H](C)O1 | B16 | cell viability, sulforhodamine B |  | 72 h, 37 °C, together with: 100 µM H2O2 |  | IC50 | 3140 ± 110 nM |
| CCCC(CCC)C(=O)[O][Pt]([NH2])([NH2])([Cl])([Cl])[O]C(C)=O | PSN1 | cell growth or viability, MTT |  | 72 h |  | IC50 | 2610 nM |
| CN1C(=O)/C(=N\c2ccc(Cl)cc2Br)c2ccccc21 | B16 | cell growth or viability, MTT |  | 48 h |  | IC50 | 9270 nM |
| Cc1ncsc1-c1ccc(C(C)NC(=O)C2CC(O)CN2C(=O)C(NC(=O)CCCCCCCCCCN2CCCC(Nc3ncc(Cl)c(Nc4ccccc4S(=O)(=O)C(C)C)n3)C2)C(C)(C)C)cc1 (stereo not shown) | 22Rv1 | RNA-seq, measured: MRGBP mRNA |  | concentration not given | baseline: DMSO | log2 fold change | -1.14 |
